{"data": "Assay results of several laboratories", "note": "“And” joins repeats or separate records; there may be more than shown."}
{"SMILES": "N#Cc1ccn2c(-c3ccncc3)c(-c3ccc(F)cc3)nc2c1", "test": "kinase binding, competitor, MIB/MS competition, refers to: YPK1", "system": "Candida albicans cell lysate", "conditions": "1 µM", "scale": "relative to: DMSO", "quantity": "log2 fold change", "result": 0.148}
{"SMILES": "COc1ccc(Nc2cnnc3ccc(-c4ccc(S(=O)(=O)N5CCN(C)CC5)cc4)cc23)cc1", "target or system": "Schistosoma mansoni", "system": "adult worms", "conditions": "10 µM, 24 h", "scale": "direction not given", "quantity": "phenotypic severity score", "result": 0}
{"SMILES": "Cn1cc(-c2ccc(-c3cncc(Cl)c3N3CCC4(CCNC4=O)CC3)cc2)cn1", "target or system": "COLO 205", "test": "gene expression, microarray, refers to: LAMP3 mRNA", "conditions": "concentration not given, 6 h", "scale": "relative to: untreated cells", "quantity": "log2 fold change", "result": 2.92}
{"SMILES": "CC(C)NCC(O)c1ccc(O)c(O)c1 (stereo not drawn)", "system": "ventricular cardiomyocytes, C57BL/6 mouse", "conditions": "dose not given, 0.552 s", "quantity": "sarcomere length", "result": "1.51 µm"}
{"SMILES": "COc1ccc(Nc2cnnc3ccc(-c4ccc(S(=O)(=O)N5CCN(C)CC5)cc4)cc23)cc1Cl", "target or system": "Schistosoma mansoni", "system": "adult worms", "conditions": "10 µM, 24 h", "scale": "direction not given", "quantity": "phenotypic severity score", "result": 1}
{"SMILES": "CC1=C(Cn2cncn2)C(=O)c2ccccc2C1=O", "target or system": "Schistosoma mansoni", "system": "adult worms", "conditions": "10 µM, 48 h", "quantity": "killing", "result": "44.4%"}
{"SMILES": "COc1cc(/C=C/C(=O)O)ccc1O", "target or system": "Nedd8-cullin1 interaction", "test": "neddylation, AlphaScreen", "conditions": "100 µM", "quantity": "inhibition", "result": "7.5%"}
{"SMILES": "COc1ccc(Nc2cnnc3ccc(-c4ccc(N5CCN(C)CC5)cc4)cc23)cc1Cl", "target or system": "Schistosoma mansoni", "system": "adult worms", "conditions": "10 µM, 48 h", "scale": "direction not given", "quantity": "phenotypic severity score", "result": 0}
{"SMILES": "CC(C)c1c(C(=O)Nc2ccccc2)c(-c2ccccc2)c(-c2ccc(F)cc2)n1CC[C@@H](O)C[C@@H](O)CC(=O)O", "target or system": "Nedd8-cullin1 interaction", "test": "neddylation, AlphaScreen", "conditions": "100 µM", "quantity": "inhibition", "result": "-43.5%"}
{"SMILES": "CC1=C(Cc2cn(CCOS(=O)(=O)c3ccc(C)cc3)nn2)C(=O)c2ccccc2C1=O", "target or system": "Schistosoma mansoni", "system": "adult worms", "conditions": "10 µM, 72 h", "quantity": "killing", "result": "43.1%"}
{"SMILES": "O=C(O)CNC(=O)Cc1ccccc1", "system": "ventricular cardiomyocytes, C57BL/6 mouse", "conditions": "dose not given, 0.116 s", "quantity": "sarcomere length", "result": "1.72 µm"}
{"SMILES": "CN1CCN(c2ccc(-c3ccc4nncc(Nc5ncccn5)c4c3)cc2)CC1", "target or system": "Schistosoma mansoni", "system": "adult worms", "conditions": "10 µM, 5 h", "scale": "direction not given", "quantity": "phenotypic severity score", "result": 0}
{"SMILES": "CC1=C(Cc2cn(CC#N)nn2)C(=O)c2ccccc2C1=O", "target or system": "Schistosoma mansoni", "system": "adult worms", "conditions": "25 µM, 24 h", "quantity": "killing", "result": "38.5%"}
{"SMILES": "C[C@H](Oc1ccc(Br)cc1-c1ccon1)C(=O)O", "test": "handgrip dynamometry", "system": "healthy human males", "conditions": "400 mg once daily, multiple doses", "scale": "relative to: placebo", "quantity": "peak grip force", "result": "1.5 kg"}
{"SMILES": "CC1=C(Cn2cc(CBr)nn2)C(=O)c2ccccc2C1=O", "target or system": "Schistosoma mansoni", "system": "adult worms", "conditions": "25 µM, 72 h", "quantity": "killing", "result": "50%"}
{"SMILES": "OC(CCN1CCCCC1)(c1ccccc1)C1CC2C=CC1C2 (stereo not drawn)", "test": "resting-state EEG", "system": "healthy elderly humans", "conditions": "oral, 4 mg, eyes open, LS mean", "quantity": "power, EEG, Alpha, O2-Pz", "result": "7.6 µV²"}
{"SMILES": "NC(=O)c1cnc2[nH]ccc2c1N[C@@H]1[C@@H]2CC3C[C@H]1C[C@@](O)(C3)C2", "test": "CD4+ central memory T cells, flow cytometry", "system": "Caucasian humans, peripheral blood", "conditions": "200 mg single dose", "scale": "relative to: baseline", "quantity": "percent change", "result": "0.08%"}
{"SMILES": "C[C@H]1c2cccc(O)c2C(=O)C2=C(O)[C@]3(O)C(=O)C(C(N)=O)=C(O)[C@@H](N(C)C)[C@@H]3[C@@H](O)[C@@H]21", "target or system": "Brugia malayi", "system": "SCID mouse", "conditions": "dose not given, 6 weeks post-treatment, dosing x42d", "quantity": "minimum adult worm burden", "result": "0 worms per mouse"}
{"SMILES": "O=S(=O)(c1cccc2cnccc12)N1CCCNCC1", "target or system": "Nedd8-cullin1 interaction", "test": "neddylation, AlphaScreen", "conditions": "100 µM", "quantity": "inhibition", "result": "6.6%"}
{"SMILES": "CC1=C(Cn2cc(COC3COC3)nn2)C(=O)c2ccccc2C1=O", "target or system": "Schistosoma mansoni", "system": "adult worms", "conditions": "10 µM, 72 h", "quantity": "killing", "result": "48%"}
{"SMILES": "CCN(CC)CCNC(=O)c1ccc(N)cc1", "target or system": "Nedd8-cullin1 interaction", "test": "neddylation, AlphaScreen", "conditions": "100 µM", "quantity": "inhibition", "result": "13.3%"}
{"SMILES": "CC1=C(Cc2cn(CCO)nn2)C(=O)c2ccccc2C1=O", "target or system": "Schistosoma mansoni", "system": "adult worms", "conditions": "25 µM, 72 h", "quantity": "killing", "result": "66.7%"}
{"SMILES": "CN1CCN(S(=O)(=O)c2ccc(-c3ccc4c(Nc5ncccn5)cnnc4c3)cc2)CC1", "target or system": "Schistosoma mansoni", "system": "adult worms", "conditions": "10 µM, 1 h", "scale": "direction not given", "quantity": "phenotypic severity score", "result": 0}
{"SMILES": "[Ca+2]", "target or system": "human TRPA1 W1103A", "test": "ion current, two-electrode voltage clamp", "system": "Xenopus oocytes", "conditions": "-80 mV, together with: AITC", "quantity": "desensitization time constant", "result": "159 s and 192 s and 205 s and 260 s and 223 s and 196 s"}
{"SMILES": "CC1=C(Cn2ccnn2)C(=O)c2ccccc2C1=O", "target or system": "Schistosoma mansoni", "system": "adult worms", "conditions": "25 µM, 24 h", "quantity": "killing", "result": "46%"}
{"SMILES": "c1ccc(CC2=NCCN2)cc1", "target or system": "Nedd8-cullin1 interaction", "test": "neddylation, AlphaScreen", "conditions": "100 µM", "quantity": "inhibition", "result": "34.9% and 33.3%"}
{"SMILES": "CC1=C(Cc2cn(CCN3CCNCC3)nn2)C(=O)c2ccccc2C1=O", "target or system": "Schistosoma mansoni", "system": "adult worms", "conditions": "25 µM, 48 h", "quantity": "killing", "result": "48.5%"}
{"SMILES": "CN1CCN(S(=O)(=O)c2ccc(-c3ccc4nncc(Nc5ncccn5)c4c3)cc2)CC1", "target or system": "Schistosoma mansoni", "system": "adult worms", "conditions": "10 µM, 5 h", "scale": "direction not given", "quantity": "phenotypic severity score", "result": 0}
{"SMILES": "CNC[C@H](O)c1ccc(O)c(O)c1.Cl", "target or system": "Nedd8-cullin1 interaction", "test": "neddylation, AlphaScreen", "conditions": "100 µM", "quantity": "inhibition", "result": "19.6%"}
{"SMILES": "CN1CCN(c2ccc(-c3ccc4c(Nc5ncccn5)cnnc4c3)cc2)CC1", "target or system": "Schistosoma mansoni", "system": "adult worms", "conditions": "10 µM, 1 h", "scale": "direction not given", "quantity": "phenotypic severity score", "result": 0}
{"SMILES": "COC(=O)C1=C(C)NC(C)=C(C(=O)OC)C1c1ccccc1[N+](=O)[O-]", "target or system": "Nedd8-cullin1 interaction", "test": "neddylation, AlphaScreen", "conditions": "100 µM", "quantity": "inhibition", "result": "36.7%"}
{"SMILES": "COc1ccc(Nc2cnnc3cc(-c4ccc(N5CCN(C)CC5)cc4)ccc23)cc1", "target or system": "Schistosoma mansoni", "system": "adult worms", "conditions": "10 µM, 24 h", "scale": "direction not given", "quantity": "phenotypic severity score", "result": 0}
{"SMILES": "CC(=O)CCCCn1c(=O)c2c(ncn2C)n(C)c1=O", "target or system": "Nedd8-cullin1 interaction", "test": "neddylation, AlphaScreen", "conditions": "100 µM", "quantity": "inhibition", "result": "-12.4%"}
{"note": "A few entries again:"}
{"SMILES": "COc1ccc(Nc2cnnc3cc(-c4ccc(N5CCN(C)CC5)cc4)ccc23)cc1", "target or system": "Schistosoma mansoni", "system": "adult worms", "conditions": "10 µM, 24 h", "scale": "direction not given", "quantity": "phenotypic severity score", "result": 0}
{"SMILES": "CC1=C(Cc2cn(CCN3CCNCC3)nn2)C(=O)c2ccccc2C1=O", "target or system": "Schistosoma mansoni", "system": "adult worms", "conditions": "25 µM, 48 h", "quantity": "killing", "result": "48.5%"}
{"SMILES": "CC1=C(Cn2cc(CBr)nn2)C(=O)c2ccccc2C1=O", "target or system": "Schistosoma mansoni", "system": "adult worms", "conditions": "25 µM, 72 h", "quantity": "killing", "result": "50%"}
{"SMILES": "COc1ccc(Nc2cnnc3ccc(-c4ccc(N5CCN(C)CC5)cc4)cc23)cc1Cl", "target or system": "Schistosoma mansoni", "system": "adult worms", "conditions": "10 µM, 48 h", "scale": "direction not given", "quantity": "phenotypic severity score", "result": 0}
{"SMILES": "COc1cc(/C=C/C(=O)O)ccc1O", "target or system": "Nedd8-cullin1 interaction", "test": "neddylation, AlphaScreen", "conditions": "100 µM", "quantity": "inhibition", "result": "7.5%"}
